Experimental data of several laboratories.
Numbers after ± are the reported error.

`CSCC[C@H](NC(=O)[C@H](CC(C)C)NC(=O)[C@H](Cc1c[nH]cn1)NC(=O)CNC(=O)[C@@H](NC(=O)[C@H](C)NC(=O)[C@H](Cc1c[nH]c2ccccc12)NC(=O)[C@H](CCC(N)=O)NC(=O)CCCCCNC(=O)CN1CCN(CC(=O)O)CCN(CC(=O)O)CC1)C(C)C)C(N)=O` [gallium-68 labelled]: “intact parent compound” 88.4% (radio-HPLC; normal saline; 120 min, 37 °C).
`N=C(N)NCCC[C@@H]1NC(=O)[C@H](CCCCNC(=O)CNC(=O)CNC(=O)CNC(=O)CC[C@H](NC(=O)CCOCCOCCOCCOCCNC(=O)CC[C@H](NC(=O)CN2CCN(CC(=O)O)CCN(CC(=O)O)CCN(CC(=O)O)CC2)C(=O)NCCOCCOCCOCCOCCC(=O)N[C@@H](CCC(=O)NCC(=O)NCC(=O)NCC(=O)NCCCC[C@@H]2NC(=O)[C@@H](Cc3ccccc3)NC(=O)[C@H](CC(=O)O)NC(=O)CNC(=O)[C@H](CCCNC(=N)N)NC2=O)C(=O)NCC(=O)NCC(=O)NCC(=O)NCCCC[C@@H]2NC(=O)[C@@H](Cc3ccccc3)NC(=O)[C@H](CC(=O)O)NC(=O)CNC(=O)[C@H](CCCNC(=N)N)NC2=O)C(=O)NCC(=O)NCC(=O)NCC(=O)NCCCC[C@@H]2NC(=O)[C@@H](Cc3ccccc3)NC(=O)[C@H](CC(=O)O)NC(=O)CNC(=O)[C@H](CCCNC(=N)N)NC2=O)NC(=O)[C@@H](Cc2ccccc2)NC(=O)[C@H](CC(=O)O)NC(=O)CNC1=O` [indium-111 labelled] — result for “tumour to tissue ratio”: 6.99 ± 1.79 (athymic nude mice, female, U-87 MG glioma xenograft, tumour and muscle; intravenous, 0.5 h; relative to: tumour over muscle).
For `Cc1ncsc1-c1ccc(CNC(=O)[C@@H]2C[C@@H](OC(=O)OCCSSCCn3cc(CCCC(=O)N[C@@H](Cc4ccc(O)cc4)C(=O)N[C@@H](CCCNC(=N)N)C(=O)N[C@@H](CCCNC(=N)N)C(=O)N[C@@H](CCCNC(=N)N)C(=O)N[C@@H](CCCNC(=N)N)C(=O)N[C@@H](CCCNC(=N)N)C(=O)N[C@@H](CCCNC(=N)N)C(=O)N[C@@H](CCCNC(=N)N)C(=O)N[C@@H](CCCNC(=N)N)C(=O)N[C@@H](CCCNC(=N)N)C(N)=O)nn3)CN2C(=O)[C@@H](NC(=O)COCCOCCOCCNC(=O)C[C@@H]2N=C(c3ccc(Cl)cc3)c3c(sc(C)c3C)-n3c(C)nnc32)C(C)(C)C)cc1`, “remaining intact compound” read 100% (UHPLC; PBS; 100 nM, 0 h, 37 °C, together with: 5 mM glutathione; relative to: total peak area).
`N=C(N)NCCC[C@@H]1NC(=O)[C@H](CCCCNC(=O)CCOCCOCCOCCOCCNC(=O)CN2CCN(CC(=O)O)CCN(CC(=O)O)CCN(CC(=O)O)CC2)NC(=O)[C@@H](Cc2ccccc2)NC(=O)[C@H](CC(=O)O)NC(=O)CNC1=O` [indium-111 labelled]: “tumour to tissue ratio” 8.75 ± 1.74 (athymic nude mice, female, U-87 MG glioma xenograft, tumour and blood; intravenous, 4 h; relative to: tumour over blood).
The uptake of `CCCC[C@H](NC(=O)CCCCCCCNC(=O)c1ccc(NN)nc1)C(=O)N[C@H]1CC(=O)NCCCC[C@@H](C(N)=O)NC(=O)[C@H](Cc2c[nH]c3ccccc23)NC(=O)[C@H](CCCNC(=N)N)NC(=O)[C@@H](Cc2ccccc2)NC(=O)[C@H](Cc2c[nH]cn2)NC1=O` [technetium-99m labelled] is reported as 4.06 ± 1.6 %ID/g (C57 mouse, B16/F1 melanoma, lung; intravenous, 0.5 h).
Under “time to best imaging quality”, `N=C(N)NCCC[C@H](NC(=O)[C@H](CCCCN)NC(=O)[C@H](CCC(N)=O)NC(=O)CCOCCOCCOCCNC(=O)CN1CCN(CC(=O)O)CCN(CC(=O)O)CCN(CC(=O)O)CC1)C(=O)N[C@@H](CCCCN)C(=O)N[C@@H](CCCNC(=N)N)C(=O)N[C@@H](CCCCN)C(=O)N[C@@H](CCCCN)C(=O)N[C@@H](CO)C(=O)N[C@@H](CCCNC(=N)N)C(=O)N[C@@H](Cc1ccc(O)cc1)C(=O)N[C@@H](CCCCN)C(=O)N[C@@H](CO)C(=O)O` [copper-64 labelled] is recorded as no more than 1 h (PET; mice, B16-F10 melanoma; intravenous).
`C[C@@H](O)[C@H](NC(=O)[C@@H]1CSSC[C@H](NC(=O)[C@@H](Cc2ccccc2)NC(=O)CN2CCCN3CCN(CCCN(CP(=O)(O)O)CC3)CC2)C(=O)N[C@@H](Cc2ccc(O)cc2)C(=O)N[C@H](Cc2c[nH]c3ccccc23)C(=O)N[C@@H](CCCCN)C(=O)N[C@@H]([C@@H](C)O)C(=O)N1)C(=O)O` [copper-64 labelled]: “reduction of lung activity” 76% (male Lewis rat, AR-42J tumour-bearing; dose not given, 24 h; relative to: 1 h activity).
The half-life of `CC(C)C[C@@H]1NC(=O)[C@H](C(C)C)NC(=O)[C@H](CO)NC(=O)CNC(=O)CNC(=O)[C@H](CCCNC(=N)N)NC(=O)[C@@H]2CCCN2C(=O)[C@@H](NC(=O)CC[C@H](NC(=O)c2ccc(N(C)Cc3cnc4nc(N)nc(N)c4n3)cc2)C(=O)O)C(C)(C)SSC[C@@H](C(=O)O)NC(=O)CNC(=O)[C@H]([C@@H](C)O)NC(=O)[C@H](C(C)C)NC1=O` is reported as 44 min (rat plasma; 1 µM, 37 °C).
The intact compound of `CCCC[C@@H](NC(=O)[C@H](Cc1c[nH]c2ccccc12)NC(=O)[C@@H](N)CSC1CC(=O)N(CC2CCC(C(=O)N[C@H]3C[C@H](O[C@H]4C[C@](O)(C(=O)CO)Cc5c(O)c6c(c(O)c54)C(=O)c4c(OC)cccc4C6=O)O[C@@H](C)[C@H]3O)CC2)C1=O)C(=O)N[C@@H](CCC(=O)O)C(=O)N[C@@H](C)C(=O)N[C@@H](C)C(=O)N[C@@H](Cc1ccc(O)cc1)C(=O)N[C@@H](CCC(N)=O)C(=O)N[C@H](CCCNC(=N)N)C(=O)N[C@@H](Cc1ccccc1)C(=O)N[C@@H](CC(C)C)C(N)=O` (stereo partly shown) is reported as greater than 80% (water; up to 48 h, pH 7.0).
With `CSCC[C@H](NC(=O)[C@H](CC(C)C)NC(=O)[C@H](Cc1c[nH]cn1)NC(=O)CNC(=O)[C@@H](NC(=O)[C@H](C)NC(=O)[C@H](Cc1c[nH]c2ccccc12)NC(=O)[C@H](CCC(N)=O)NC(=O)CCCCCNC(=O)CNC(=O)CNC(=O)CNC(=O)CSC(C)=O)C(C)C)C(N)=O` [technetium-99m labelled] the tissue uptake was 0.33 ± 0.05 %ID/g (Swiss mouse, muscle; intravenous, 18.5 MBq, 5 min).
`CCCC[C@H](NC(=O)CNC(=O)CNC(=O)c1ccc(NN)nc1)C(=O)N[C@H]1CC(=O)NCCCC[C@@H](C(N)=O)NC(=O)[C@H](Cc2c[nH]c3ccccc23)NC(=O)[C@H](CCCNC(=N)N)NC(=O)[C@@H](Cc2ccccc2)NC(=O)[C@H](Cc2c[nH]cn2)NC1=O` [technetium-99m labelled] has a tissue uptake of 0.76 ± 0.1 %ID/g (C57 mouse, B16/F1 melanoma-bearing, bone; intravenous, 0.5 h).
`CN[C@](C)(C[18F])C(=O)O` gave a tracer uptake of 1.5 %ID/g (A549 tumour model; host not given, muscle; 1 h, tumour-bearing).
`N=C(N)NCCC[C@@H]1NC(=O)[C@H](CCCCNC(=O)CC[C@H](NC(=O)CCOCCOCCOCCOCCNC(=O)CN2CCN(CC(=O)O)CCN(CC(=O)O)CCN(CC(=O)O)CC2)C(=O)NCCCC[C@@H]2NC(=O)[C@@H](Cc3ccccc3)NC(=O)[C@H](CC(=O)O)NC(=O)CNC(=O)[C@H](CCCNC(=N)N)NC2=O)NC(=O)[C@@H](Cc2ccccc2)NC(=O)[C@H](CC(=O)O)NC(=O)CNC1=O` [indium-111 labelled]: “tumour to tissue ratio” 2 ± 0.26 (athymic nude mice, female, U-87 MG glioma xenograft, tumour and liver; intravenous, 72 h; relative to: tumour over liver).
With `CCCC[C@H](NC(=O)CNC(=O)[C@H](CO)NC(=O)CNC(=O)c1ccc(NN)nc1)C(=O)N[C@H]1CC(=O)NCCCC[C@@H](C(N)=O)NC(=O)[C@H](Cc2c[nH]c3ccccc23)NC(=O)[C@H](CCCNC(=N)N)NC(=O)[C@@H](Cc2ccccc2)NC(=O)[C@H](Cc2c[nH]cn2)NC1=O` [technetium-99m labelled] the uptake ratio was 34 (C57 mouse, B16/F1 melanoma; 2 h; relative to: tumour over skin).
`N=C(N)NCCC[C@@H]1NC(=O)[C@H](CCCCNC(=O)CNC(=O)CNC(=O)CNC(=O)CC[C@H](NC(=O)c2ccc(NN=Cc3ccccc3S(=O)(=O)O)nc2)C(=O)NCC(=O)NCC(=O)NCC(=O)NCCCC[C@@H]2NC(=O)[C@@H](Cc3ccccc3)NC(=O)[C@H](CC(=O)O)NC(=O)CNC(=O)[C@H](CCCNC(=N)N)NC2=O)NC(=O)[C@@H](Cc2ccccc2)NC(=O)[C@H](CC(=O)O)NC(=O)CNC1=O` [technetium-99m labelled] gave a tissue uptake of 2.72 ± 0.33 %ID/g (athymic nu/nu mouse, female, U-87 MG glioma xenograft, muscle; intravenous, 30 min).
For `N=C(N)NCCC[C@@H]1NC(=O)[C@H](CCCCNC(=O)CCOCCOCCOCCOCCNC(=O)CC[C@H](NC(=O)CCOCCOCCOCCOCCNC(=O)CC[C@H](NC(=O)CN2CCN(CC(=O)O)CCN(CC(=O)O)CCN(CC(=O)O)CC2)C(=O)NCCOCCOCCOCCOCCC(=O)N[C@@H](CCC(=O)NCCOCCOCCOCCOCCC(=O)NCCCC[C@@H]2NC(=O)[C@@H](Cc3ccccc3)NC(=O)[C@H](CC(=O)O)NC(=O)CNC(=O)[C@H](CCCNC(=N)N)NC2=O)C(=O)NCCOCCOCCOCCOCCC(=O)NCCCC[C@@H]2NC(=O)[C@@H](Cc3ccccc3)NC(=O)[C@H](CC(=O)O)NC(=O)CNC(=O)[C@H](CCCNC(=N)N)NC2=O)C(=O)NCCOCCOCCOCCOCCC(=O)NCCCC[C@@H]2NC(=O)[C@@H](Cc3ccccc3)NC(=O)[C@H](CC(=O)O)NC(=O)CNC(=O)[C@H](CCCNC(=N)N)NC2=O)NC(=O)[C@@H](Cc2ccccc2)NC(=O)[C@H](CC(=O)O)NC(=O)CNC1=O` [indium-111 labelled], “tumour to tissue ratio” read 2.55 ± 0.21 (athymic nude mice, female, U-87 MG glioma xenograft, tumour and liver; intravenous, 0.5 h; relative to: tumour over liver).

Repeated from above:
`CSCC[C@H](NC(=O)[C@H](CC(C)C)NC(=O)[C@H](Cc1c[nH]cn1)NC(=O)CNC(=O)[C@@H](NC(=O)[C@H](C)NC(=O)[C@H](Cc1c[nH]c2ccccc12)NC(=O)[C@H](CCC(N)=O)NC(=O)CCCCCNC(=O)CN1CCN(CC(=O)O)CCN(CC(=O)O)CC1)C(C)C)C(N)=O` [gallium-68 labelled]: “intact parent compound” 88.4% (radio-HPLC; normal saline; 120 min, 37 °C).
`N=C(N)NCCC[C@@H]1NC(=O)[C@H](CCCCNC(=O)CNC(=O)CNC(=O)CNC(=O)CC[C@H](NC(=O)CCOCCOCCOCCOCCNC(=O)CC[C@H](NC(=O)CN2CCN(CC(=O)O)CCN(CC(=O)O)CCN(CC(=O)O)CC2)C(=O)NCCOCCOCCOCCOCCC(=O)N[C@@H](CCC(=O)NCC(=O)NCC(=O)NCC(=O)NCCCC[C@@H]2NC(=O)[C@@H](Cc3ccccc3)NC(=O)[C@H](CC(=O)O)NC(=O)CNC(=O)[C@H](CCCNC(=N)N)NC2=O)C(=O)NCC(=O)NCC(=O)NCC(=O)NCCCC[C@@H]2NC(=O)[C@@H](Cc3ccccc3)NC(=O)[C@H](CC(=O)O)NC(=O)CNC(=O)[C@H](CCCNC(=N)N)NC2=O)C(=O)NCC(=O)NCC(=O)NCC(=O)NCCCC[C@@H]2NC(=O)[C@@H](Cc3ccccc3)NC(=O)[C@H](CC(=O)O)NC(=O)CNC(=O)[C@H](CCCNC(=N)N)NC2=O)NC(=O)[C@@H](Cc2ccccc2)NC(=O)[C@H](CC(=O)O)NC(=O)CNC1=O` [indium-111 labelled] — result for “tumour to tissue ratio”: 6.99 ± 1.79 (athymic nude mice, female, U-87 MG glioma xenograft, tumour and muscle; intravenous, 0.5 h; relative to: tumour over muscle).
